# Measured values gathered from unrelated publications.
# ± gives the spread as reported.
# Sequence of UniProt P28074 (whole entry, looked up): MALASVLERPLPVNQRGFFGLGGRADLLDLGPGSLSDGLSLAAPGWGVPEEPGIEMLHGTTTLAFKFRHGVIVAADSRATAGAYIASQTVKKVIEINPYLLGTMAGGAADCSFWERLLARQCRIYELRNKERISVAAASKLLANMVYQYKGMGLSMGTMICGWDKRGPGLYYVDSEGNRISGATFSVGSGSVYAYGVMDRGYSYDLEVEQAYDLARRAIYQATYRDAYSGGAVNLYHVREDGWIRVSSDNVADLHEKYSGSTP
# Sequence of UniProt B2RXH2 (whole entry, looked up): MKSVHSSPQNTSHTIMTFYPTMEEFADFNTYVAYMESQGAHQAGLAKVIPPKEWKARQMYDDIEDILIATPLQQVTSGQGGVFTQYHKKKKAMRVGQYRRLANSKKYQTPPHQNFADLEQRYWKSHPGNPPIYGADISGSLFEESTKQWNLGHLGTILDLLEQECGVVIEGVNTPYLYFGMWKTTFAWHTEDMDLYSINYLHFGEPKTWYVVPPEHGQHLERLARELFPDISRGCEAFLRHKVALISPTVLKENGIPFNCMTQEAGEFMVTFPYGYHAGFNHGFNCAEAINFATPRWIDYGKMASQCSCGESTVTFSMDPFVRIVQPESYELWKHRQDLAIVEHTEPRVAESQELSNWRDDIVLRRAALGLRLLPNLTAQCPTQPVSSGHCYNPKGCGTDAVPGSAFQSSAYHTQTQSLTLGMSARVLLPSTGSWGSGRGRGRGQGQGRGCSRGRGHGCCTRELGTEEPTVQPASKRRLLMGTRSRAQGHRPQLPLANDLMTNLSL
# Sequence of UniProt Q09470 (whole entry, looked up): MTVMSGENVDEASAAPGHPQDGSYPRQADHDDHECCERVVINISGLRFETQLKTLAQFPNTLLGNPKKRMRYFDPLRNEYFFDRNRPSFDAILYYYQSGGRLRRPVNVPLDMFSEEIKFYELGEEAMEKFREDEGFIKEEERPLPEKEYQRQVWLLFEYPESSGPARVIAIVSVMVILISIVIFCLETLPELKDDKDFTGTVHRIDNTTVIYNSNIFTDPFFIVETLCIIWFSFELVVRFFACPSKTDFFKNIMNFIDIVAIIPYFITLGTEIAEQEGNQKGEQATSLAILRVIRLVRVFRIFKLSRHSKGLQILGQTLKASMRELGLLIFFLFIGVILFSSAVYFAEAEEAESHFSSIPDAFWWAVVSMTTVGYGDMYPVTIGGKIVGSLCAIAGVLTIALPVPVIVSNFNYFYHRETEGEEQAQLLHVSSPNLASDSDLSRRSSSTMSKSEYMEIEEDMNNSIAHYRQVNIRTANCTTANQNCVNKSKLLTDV
# Sequence of UniProt Q13526 (whole entry, looked up): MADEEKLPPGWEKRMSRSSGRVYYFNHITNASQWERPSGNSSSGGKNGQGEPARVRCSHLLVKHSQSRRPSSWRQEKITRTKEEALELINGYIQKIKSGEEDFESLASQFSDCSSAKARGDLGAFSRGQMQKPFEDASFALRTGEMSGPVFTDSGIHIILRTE
# Sequence of UniProt P16389 (whole entry, looked up): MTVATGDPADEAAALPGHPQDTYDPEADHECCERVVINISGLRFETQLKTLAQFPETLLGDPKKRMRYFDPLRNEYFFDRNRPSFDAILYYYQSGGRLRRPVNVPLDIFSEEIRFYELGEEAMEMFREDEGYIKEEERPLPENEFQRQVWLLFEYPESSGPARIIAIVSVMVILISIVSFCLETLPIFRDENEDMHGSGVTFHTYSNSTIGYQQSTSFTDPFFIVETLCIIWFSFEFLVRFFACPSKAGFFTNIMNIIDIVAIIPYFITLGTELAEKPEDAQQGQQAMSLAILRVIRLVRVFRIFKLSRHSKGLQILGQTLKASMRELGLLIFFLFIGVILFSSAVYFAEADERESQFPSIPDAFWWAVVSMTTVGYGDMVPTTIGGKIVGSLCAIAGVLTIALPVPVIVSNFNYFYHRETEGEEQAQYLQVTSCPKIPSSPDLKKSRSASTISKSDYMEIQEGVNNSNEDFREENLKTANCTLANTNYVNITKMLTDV
# Sequence of UniProt Q99685 (whole entry, looked up): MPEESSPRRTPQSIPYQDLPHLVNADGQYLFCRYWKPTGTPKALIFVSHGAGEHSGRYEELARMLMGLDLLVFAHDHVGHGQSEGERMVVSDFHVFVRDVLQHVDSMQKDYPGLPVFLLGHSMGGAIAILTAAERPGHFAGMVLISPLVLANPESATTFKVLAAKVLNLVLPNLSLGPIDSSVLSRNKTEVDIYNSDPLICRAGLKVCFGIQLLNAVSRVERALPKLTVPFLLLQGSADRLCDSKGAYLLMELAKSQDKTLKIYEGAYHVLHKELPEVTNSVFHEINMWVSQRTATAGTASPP
# Sequence of UniProt Q9HT15 (whole entry, looked up): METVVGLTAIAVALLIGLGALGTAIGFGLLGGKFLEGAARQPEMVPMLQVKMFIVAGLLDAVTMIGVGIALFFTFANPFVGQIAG
# Sequence of UniProt Q8HZR1 (whole entry, looked up): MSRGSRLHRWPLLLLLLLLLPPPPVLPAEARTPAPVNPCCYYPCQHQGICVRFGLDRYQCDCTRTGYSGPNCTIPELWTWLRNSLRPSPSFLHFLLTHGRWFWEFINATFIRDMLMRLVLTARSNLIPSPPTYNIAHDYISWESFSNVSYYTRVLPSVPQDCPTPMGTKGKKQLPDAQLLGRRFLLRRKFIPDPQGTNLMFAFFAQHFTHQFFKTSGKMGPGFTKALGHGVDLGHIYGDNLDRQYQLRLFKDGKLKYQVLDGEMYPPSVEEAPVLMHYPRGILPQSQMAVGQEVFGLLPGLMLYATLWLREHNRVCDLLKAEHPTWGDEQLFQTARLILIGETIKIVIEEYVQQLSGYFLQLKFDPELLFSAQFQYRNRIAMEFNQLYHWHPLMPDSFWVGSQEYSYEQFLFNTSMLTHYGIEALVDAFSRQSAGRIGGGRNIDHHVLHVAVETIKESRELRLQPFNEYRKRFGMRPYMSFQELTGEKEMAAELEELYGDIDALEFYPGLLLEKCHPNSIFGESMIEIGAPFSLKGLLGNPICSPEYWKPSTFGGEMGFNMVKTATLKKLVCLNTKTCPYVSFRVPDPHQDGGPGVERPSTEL
# Sequence of UniProt Q92769 (whole entry, looked up): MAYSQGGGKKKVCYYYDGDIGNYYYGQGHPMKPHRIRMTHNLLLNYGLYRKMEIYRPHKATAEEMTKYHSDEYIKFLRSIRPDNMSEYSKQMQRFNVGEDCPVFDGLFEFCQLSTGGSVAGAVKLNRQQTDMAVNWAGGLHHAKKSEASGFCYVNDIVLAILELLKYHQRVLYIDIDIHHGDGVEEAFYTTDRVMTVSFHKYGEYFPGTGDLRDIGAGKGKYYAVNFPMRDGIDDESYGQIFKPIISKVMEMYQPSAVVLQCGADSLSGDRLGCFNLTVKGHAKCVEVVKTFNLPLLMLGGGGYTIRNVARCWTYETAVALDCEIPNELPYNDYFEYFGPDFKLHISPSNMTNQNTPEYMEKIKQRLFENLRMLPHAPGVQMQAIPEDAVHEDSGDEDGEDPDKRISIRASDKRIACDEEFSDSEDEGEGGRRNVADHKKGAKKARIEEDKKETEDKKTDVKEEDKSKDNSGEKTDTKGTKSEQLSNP
# Sequence of UniProt Q15561 (whole entry, looked up): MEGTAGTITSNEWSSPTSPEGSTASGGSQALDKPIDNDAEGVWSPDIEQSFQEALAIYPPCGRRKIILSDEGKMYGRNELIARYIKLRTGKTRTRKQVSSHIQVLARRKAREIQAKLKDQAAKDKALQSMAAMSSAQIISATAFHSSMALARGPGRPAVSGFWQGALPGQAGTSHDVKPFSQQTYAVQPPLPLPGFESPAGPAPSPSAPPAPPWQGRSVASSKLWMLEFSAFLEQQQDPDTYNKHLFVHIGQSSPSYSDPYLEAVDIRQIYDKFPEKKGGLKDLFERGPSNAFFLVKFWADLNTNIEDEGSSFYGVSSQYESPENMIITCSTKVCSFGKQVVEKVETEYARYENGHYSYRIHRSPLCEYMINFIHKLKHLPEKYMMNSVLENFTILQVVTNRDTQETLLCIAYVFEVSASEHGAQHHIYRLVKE
# Sequence of UniProt P55072 (whole entry, looked up): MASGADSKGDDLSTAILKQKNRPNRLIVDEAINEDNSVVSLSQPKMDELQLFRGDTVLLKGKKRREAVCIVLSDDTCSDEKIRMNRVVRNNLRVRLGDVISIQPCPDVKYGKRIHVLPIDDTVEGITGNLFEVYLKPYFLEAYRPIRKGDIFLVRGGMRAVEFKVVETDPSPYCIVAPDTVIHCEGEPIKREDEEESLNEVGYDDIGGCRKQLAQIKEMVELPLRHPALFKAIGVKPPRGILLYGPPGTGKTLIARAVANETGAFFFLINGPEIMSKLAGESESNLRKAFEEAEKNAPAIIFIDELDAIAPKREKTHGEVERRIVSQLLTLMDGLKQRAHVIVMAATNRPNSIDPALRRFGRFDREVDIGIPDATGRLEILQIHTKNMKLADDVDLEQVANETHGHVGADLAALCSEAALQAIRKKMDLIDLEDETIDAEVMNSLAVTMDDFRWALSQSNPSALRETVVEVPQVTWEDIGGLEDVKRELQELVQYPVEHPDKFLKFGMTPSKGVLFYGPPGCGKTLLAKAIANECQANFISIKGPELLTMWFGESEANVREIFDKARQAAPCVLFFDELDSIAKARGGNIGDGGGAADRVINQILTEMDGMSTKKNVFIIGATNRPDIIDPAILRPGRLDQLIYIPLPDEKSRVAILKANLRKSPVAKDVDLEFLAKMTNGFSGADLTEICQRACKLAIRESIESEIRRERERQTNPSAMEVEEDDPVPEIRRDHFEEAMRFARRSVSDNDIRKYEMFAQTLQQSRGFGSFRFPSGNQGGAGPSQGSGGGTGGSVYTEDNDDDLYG
# Sequence of UniProt P20618 (whole entry, looked up): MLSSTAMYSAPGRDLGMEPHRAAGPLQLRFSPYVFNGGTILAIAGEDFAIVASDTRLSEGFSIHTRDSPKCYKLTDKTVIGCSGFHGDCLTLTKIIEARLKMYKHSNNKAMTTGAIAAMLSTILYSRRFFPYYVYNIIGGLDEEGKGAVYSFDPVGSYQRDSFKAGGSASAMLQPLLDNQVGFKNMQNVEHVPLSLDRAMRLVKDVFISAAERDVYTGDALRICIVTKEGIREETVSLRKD
SMILES,target,assay,test system,setting,IC50 [nM]
O=C[C@H](C[C@H]1CCNC1=O)NC(=O)[C@H](CC1CCCCC1)NC(=O)OCc1cccc(Cl)c1,"Genome polyprotein, 3C protease (rhinovirus B14, UniProt P03303)","3C protease activity, inhibitor, FRET",,,50 ± 20
O=C(OC(C(F)(F)F)C(F)(F)F)N1CCC(Cn2ccc3cc(F)ccc32)CC1,"Monoglyceride lipase (MGLL, Homo sapiens, UniProt Q99685)","enzyme activity, inhibitor",,,830
Clc1cccc(Nc2nc(NCc3ccccc3)c3ccccc3n2)c1,"Transitional endoplasmic reticulum ATPase (VCP, Homo sapiens, UniProt P55072)","enzyme activity, inhibitor",,,400
O=C(O)C(=O)NC(CSCc1ccccc1)C(=O)O (centres unmarked),"Lysine-specific demethylase 4E (KDM4E, Homo sapiens, UniProt B2RXH2)","enzyme activity, inhibitor",,,300000
C[C@H](OP(=O)(O)O)[C@H]1NC(=O)[C@@H](CCCNC(=N)N)NC(=O)[C@@H](CCCNC(=N)N)NC(=O)[C@H](CCCNC(=N)N)NC(=O)[C@H](Cc2ccc(F)cc2)NC(=O)[C@H](Cc2ccc3ccccc3c2)NC(=O)[C@@H]2CCCCN2C1=O,"Peptidyl-prolyl cis-trans isomerase NIMA-interacting 1 (PIN1, Homo sapiens, UniProt Q13526)",fluorescence anisotropy competition,,added: FITC-labelled probe,960 ± 210
O=C(CCCCCCN(Cc1ccc([N+](=O)[O-])cc1)Cc1ccc([N+](=O)[O-])cc1)NO,"Histone deacetylase 2 (HDAC2, Homo sapiens, UniProt Q92769)","enzyme activity, inhibitor, fluorescence",,,4000
CCOc1c(C(C)(C)O)sc2cnc(Nc3ccc(N4CCC(N5CC6(COC6)C5)CC4)cc3OC)nc12,"Voltage-dependent L-type calcium channel subunit alpha-1C (CACNA1C, Homo sapiens, UniProt Q13936)","ion current, inhibitor, patch clamp",,,> 30000
C[C@H](NC(=O)c1cc(S(=O)(=O)N2CCOCC2)ccc1N1CCCCC1)c1cc2ccccc2o1,"KCNA2/KCNA1 (Homo sapiens, UniProt P16389+Q09470)","potassium current, inhibitor, automated patch clamp","CHO-K1, concatemer expressing",,1620
O=C1OC2(c3ccccc31)c1cc([N+](=O)[O-])c(O)c(Br)c1Oc1c2cc([N+](=O)[O-])c(O)c1Br,"Genome polyprotein, NS2B-NS3 protease (dengue virus type 2, UniProt P29990)","protease activity, inhibitor, FRET",,,47000
O=C1Nc2cc(Cl)ccc2/C1=C\c1cccc(Cl)c1Cl,alpha-amylase,inhibitor,,added: starch,42400
CN(C)CC1C2CN(c3cc(-c4ccccc4F)nc4ccnn34)CC12 (centres unmarked),"Transcriptional enhancer factor TEF-3, YAP-binding domain (TEAD4, Homo sapiens, UniProt Q15561)",,,,336
NS(=O)(=O)c1ccc(N2N=C(C(F)(F)F)CC2c2ccc(F)cc2F)cc1 (centres unmarked),"Prostaglandin G/H synthase 1 (Canis lupus familiaris, UniProt Q8HZR1)","TXB2 formation, inhibitor",clotting dog whole blood,"1 h, 37 °C",37500
C[C@H](NC(=O)[C@H](CC(=O)NCC(C)(C)C)NC(=O)C(=O)c1c[nH]c2ccccc12)C(=O)NCc1ccc(F)cc1F,"Proteasome component C5/PSMB5 (Homo sapiens, UniProt P20618+P28074)",inhibitor,,,2.4
COC(=O)[C@H](Cc1c[nH]c2ccccc12)NCc1cc2ccccc2nc1SC,"ATP synthase subunit c, whole ATP synthase complex (atpE, Pseudomonas aeruginosa, UniProt Q9HT15)","ATP synthesis, inhibitor","Pseudomonas aeruginosa, inverted membrane vesicles","10 min, added: NADH",4930

# Excerpt of the above:
SMILES,target,assay,test system,setting,IC50 [nM]
C[C@H](NC(=O)[C@H](CC(=O)NCC(C)(C)C)NC(=O)C(=O)c1c[nH]c2ccccc12)C(=O)NCc1ccc(F)cc1F,"Proteasome component C5/PSMB5 (Homo sapiens, UniProt P20618+P28074)",inhibitor,,,2.4
Clc1cccc(Nc2nc(NCc3ccccc3)c3ccccc3n2)c1,"Transitional endoplasmic reticulum ATPase (VCP, Homo sapiens, UniProt P55072)","enzyme activity, inhibitor",,,400
